Published values collected from several papers.
Protocols differ between the studies behind these lines. Numbers after ± are the reported error. Square brackets hold non-standard residues; d marks the D form. Where no end group is shown, it is not given here. Ends that are not written are not given here. No end group written: not given here. [ ]: non-standard residue; d: D form. *: point of attachment.
RHO Meta II: RHO Meta II, phosphorylated, retinal (Bos taurus, UniProt P02699)
T1: STAG2/RAD21 STAG2 80-1060, RAD21 281-420 (Homo sapiens); chain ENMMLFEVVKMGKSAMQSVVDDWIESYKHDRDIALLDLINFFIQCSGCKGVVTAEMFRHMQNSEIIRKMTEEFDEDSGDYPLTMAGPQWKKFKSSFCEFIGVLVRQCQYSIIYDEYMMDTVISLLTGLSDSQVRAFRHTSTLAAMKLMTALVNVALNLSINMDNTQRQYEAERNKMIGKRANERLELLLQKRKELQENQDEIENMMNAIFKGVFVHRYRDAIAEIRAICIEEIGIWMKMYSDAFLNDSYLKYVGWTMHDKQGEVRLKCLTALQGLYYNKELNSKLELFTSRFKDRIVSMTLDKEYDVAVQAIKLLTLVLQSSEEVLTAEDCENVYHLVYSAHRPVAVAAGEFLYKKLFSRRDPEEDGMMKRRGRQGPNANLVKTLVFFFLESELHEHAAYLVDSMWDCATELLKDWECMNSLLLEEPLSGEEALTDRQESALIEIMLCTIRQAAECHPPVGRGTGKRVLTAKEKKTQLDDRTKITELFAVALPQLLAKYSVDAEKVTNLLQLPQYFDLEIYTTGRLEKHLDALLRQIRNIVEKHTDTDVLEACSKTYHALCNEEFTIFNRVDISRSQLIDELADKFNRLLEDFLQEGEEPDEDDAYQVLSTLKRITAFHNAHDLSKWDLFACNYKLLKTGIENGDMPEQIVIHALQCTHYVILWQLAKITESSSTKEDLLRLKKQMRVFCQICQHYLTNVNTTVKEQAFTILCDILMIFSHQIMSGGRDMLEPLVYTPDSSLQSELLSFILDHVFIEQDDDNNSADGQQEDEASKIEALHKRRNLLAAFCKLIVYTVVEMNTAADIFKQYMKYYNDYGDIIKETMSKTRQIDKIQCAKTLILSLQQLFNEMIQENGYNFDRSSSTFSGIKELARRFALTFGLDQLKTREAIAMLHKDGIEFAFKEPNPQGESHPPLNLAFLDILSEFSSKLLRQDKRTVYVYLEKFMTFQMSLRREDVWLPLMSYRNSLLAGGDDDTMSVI; chain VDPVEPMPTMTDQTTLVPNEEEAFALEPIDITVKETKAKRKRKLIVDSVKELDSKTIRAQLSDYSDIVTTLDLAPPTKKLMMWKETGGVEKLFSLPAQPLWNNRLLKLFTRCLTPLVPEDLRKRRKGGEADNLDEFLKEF
B1: lin-42 402-475 (Caenorhabditis elegans, UniProt Q65ZG8); chain GAMDPEFLSYTQINCLENVHRLLKSQSRPESPAKQDEPFDEKKYPPQTPLTREALTLHTKRFEDEYKDTWCRRLKRLSDDV
B2: gpE (phage lambda, UniProt P03713); sequence looked up; chain MSMYTTAQLLAANEQKFKFDPLFLRLFFRESYPFTTEKVYLSQIPGLVNMALYVSPIVSGEVIRSRGGSTSEFTPGYVKPKHEVNPQMTLRRLPDEDPQNLADPAYRRRRIIMQNMRDEELAIAQVEEMQAVSAVLKGKYTMTGEAFDPVEVDMGRSEENNITQSGGTEWSKRDKSTYDPTDDIEAYALNASGVVNIIVFDPKGWALFRSFKAVKEKLDTRRGSNSELETAVKDLGKAVSYKGMYGDVAIVVYSGQYVENGVKKNFLPDNTMVLGNTQARGLRTYGCIQDADAQREGINASARYPKNWVTTGDPAREFTMIQSAPLMLLADPDEFVSVQLA
UniProt O15392, sequence (whole entry, unmodified, looked up): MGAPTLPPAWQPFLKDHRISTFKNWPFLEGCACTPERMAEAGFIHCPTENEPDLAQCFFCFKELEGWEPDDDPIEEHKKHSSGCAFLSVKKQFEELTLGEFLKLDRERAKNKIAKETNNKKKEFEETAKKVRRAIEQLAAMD
UniProt P25063, sequence (whole entry, looked up): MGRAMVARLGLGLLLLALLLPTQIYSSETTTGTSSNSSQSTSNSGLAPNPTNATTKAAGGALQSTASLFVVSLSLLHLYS
UniProt P0DMV8, sequence (whole entry, looked up): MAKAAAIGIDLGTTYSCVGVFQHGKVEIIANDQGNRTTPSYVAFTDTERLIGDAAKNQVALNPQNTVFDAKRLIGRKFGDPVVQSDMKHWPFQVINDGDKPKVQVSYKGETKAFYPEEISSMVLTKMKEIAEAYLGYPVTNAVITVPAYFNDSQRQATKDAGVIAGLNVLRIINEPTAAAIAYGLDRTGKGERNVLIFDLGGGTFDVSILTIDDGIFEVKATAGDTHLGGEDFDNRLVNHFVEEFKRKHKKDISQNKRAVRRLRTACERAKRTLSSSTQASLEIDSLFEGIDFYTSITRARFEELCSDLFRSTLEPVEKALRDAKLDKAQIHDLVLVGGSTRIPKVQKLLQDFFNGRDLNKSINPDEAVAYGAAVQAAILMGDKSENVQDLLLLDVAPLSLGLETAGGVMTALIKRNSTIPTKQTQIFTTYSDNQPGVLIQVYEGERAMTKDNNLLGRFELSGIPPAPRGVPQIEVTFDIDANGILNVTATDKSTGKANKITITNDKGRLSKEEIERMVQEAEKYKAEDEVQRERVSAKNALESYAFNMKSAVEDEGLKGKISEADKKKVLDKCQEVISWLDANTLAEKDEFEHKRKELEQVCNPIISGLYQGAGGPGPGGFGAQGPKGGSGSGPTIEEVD
UniProt P48730, sequence (whole entry, unmodified, looked up): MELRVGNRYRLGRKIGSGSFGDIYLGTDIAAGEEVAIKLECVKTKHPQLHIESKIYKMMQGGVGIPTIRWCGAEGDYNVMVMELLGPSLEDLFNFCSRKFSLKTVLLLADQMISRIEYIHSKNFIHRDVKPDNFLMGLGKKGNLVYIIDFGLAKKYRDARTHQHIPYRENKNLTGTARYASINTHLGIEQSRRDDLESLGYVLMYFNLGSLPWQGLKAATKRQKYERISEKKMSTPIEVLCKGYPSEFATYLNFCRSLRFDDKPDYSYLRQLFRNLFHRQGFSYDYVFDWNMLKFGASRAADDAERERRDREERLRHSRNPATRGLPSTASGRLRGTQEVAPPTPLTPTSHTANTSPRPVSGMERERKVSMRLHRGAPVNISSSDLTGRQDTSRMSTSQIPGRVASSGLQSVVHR
UniProt O43791, sequence (whole entry, unmodified, looked up): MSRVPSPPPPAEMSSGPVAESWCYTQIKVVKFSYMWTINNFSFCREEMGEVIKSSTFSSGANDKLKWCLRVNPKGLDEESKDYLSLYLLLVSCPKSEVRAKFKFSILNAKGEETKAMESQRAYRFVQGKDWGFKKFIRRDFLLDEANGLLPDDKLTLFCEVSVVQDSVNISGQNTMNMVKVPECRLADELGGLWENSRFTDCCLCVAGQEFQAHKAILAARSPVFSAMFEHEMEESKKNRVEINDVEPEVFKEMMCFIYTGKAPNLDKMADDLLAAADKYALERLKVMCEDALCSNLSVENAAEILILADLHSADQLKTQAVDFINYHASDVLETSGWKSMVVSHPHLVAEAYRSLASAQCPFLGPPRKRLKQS
UniProt P11021, sequence (whole entry, looked up): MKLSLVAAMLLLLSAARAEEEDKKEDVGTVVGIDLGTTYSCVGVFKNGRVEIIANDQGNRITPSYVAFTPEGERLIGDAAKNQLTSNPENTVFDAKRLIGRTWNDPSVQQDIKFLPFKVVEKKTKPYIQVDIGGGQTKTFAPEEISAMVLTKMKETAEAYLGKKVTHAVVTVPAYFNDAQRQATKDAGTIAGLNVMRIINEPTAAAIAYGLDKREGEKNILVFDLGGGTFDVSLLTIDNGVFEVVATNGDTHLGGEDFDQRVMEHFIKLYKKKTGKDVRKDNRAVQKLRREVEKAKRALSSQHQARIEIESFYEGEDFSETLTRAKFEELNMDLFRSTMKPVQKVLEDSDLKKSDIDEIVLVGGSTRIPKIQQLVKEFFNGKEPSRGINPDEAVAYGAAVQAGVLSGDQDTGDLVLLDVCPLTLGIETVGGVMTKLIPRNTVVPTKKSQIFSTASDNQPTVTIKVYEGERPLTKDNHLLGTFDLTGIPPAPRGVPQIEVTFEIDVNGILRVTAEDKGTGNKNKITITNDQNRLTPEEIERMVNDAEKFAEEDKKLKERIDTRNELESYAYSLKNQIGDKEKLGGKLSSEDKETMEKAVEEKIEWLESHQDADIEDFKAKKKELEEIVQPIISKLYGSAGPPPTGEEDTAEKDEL
UniProt O75151, sequence (whole entry, looked up): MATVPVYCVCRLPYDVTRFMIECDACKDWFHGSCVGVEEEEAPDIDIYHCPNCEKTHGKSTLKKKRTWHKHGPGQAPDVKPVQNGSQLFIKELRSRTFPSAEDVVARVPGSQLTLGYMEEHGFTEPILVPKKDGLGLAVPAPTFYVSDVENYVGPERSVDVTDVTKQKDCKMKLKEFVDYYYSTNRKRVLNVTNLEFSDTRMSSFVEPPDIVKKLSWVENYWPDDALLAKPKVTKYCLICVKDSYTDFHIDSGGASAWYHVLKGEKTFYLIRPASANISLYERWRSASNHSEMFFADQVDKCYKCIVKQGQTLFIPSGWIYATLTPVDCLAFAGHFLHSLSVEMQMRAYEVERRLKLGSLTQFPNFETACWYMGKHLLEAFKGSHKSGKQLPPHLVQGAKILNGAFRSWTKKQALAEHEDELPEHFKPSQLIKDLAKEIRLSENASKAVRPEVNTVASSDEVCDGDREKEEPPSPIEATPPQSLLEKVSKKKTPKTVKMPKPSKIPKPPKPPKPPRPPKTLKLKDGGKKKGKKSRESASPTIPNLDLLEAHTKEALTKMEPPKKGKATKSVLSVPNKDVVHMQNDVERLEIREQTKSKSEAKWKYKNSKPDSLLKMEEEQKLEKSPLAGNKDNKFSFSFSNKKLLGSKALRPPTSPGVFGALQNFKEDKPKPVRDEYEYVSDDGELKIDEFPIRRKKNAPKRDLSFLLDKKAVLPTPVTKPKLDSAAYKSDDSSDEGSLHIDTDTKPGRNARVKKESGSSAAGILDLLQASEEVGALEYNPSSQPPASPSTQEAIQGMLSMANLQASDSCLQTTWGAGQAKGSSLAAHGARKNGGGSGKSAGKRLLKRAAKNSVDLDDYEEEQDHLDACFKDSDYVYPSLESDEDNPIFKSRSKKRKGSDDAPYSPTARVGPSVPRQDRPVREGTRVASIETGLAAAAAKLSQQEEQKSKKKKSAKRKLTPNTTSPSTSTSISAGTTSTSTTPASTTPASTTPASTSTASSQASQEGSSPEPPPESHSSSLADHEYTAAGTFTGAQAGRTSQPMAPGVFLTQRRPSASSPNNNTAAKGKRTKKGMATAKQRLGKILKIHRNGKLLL
UniProt O95166, sequence (whole entry, looked up): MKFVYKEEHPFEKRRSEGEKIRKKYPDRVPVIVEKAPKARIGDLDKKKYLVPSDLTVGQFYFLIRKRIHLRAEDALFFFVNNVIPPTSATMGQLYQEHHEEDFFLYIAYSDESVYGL

With `AR[pT]KQTARKSTG (H3C1 1-12; pT3; pT = C[C@@H](OP(=O)(O)O)[C@H](N)C(=O)O)` the Kd was 2.85 ± 0.06 µM (BIRC5 1-142 (Homo sapiens, UniProt O15392); ITC; peptide; pH 6.8, 37 °C).
`CNSRQTDREDELI` has an inhibition of 0% (peptide, human polyclonal IgM RF SOR; concentration not given, 5 µg/mL mAb II-481 coated, added: RF at 50% max binding concentration).
With `TLGLRPVPVATT (designed peptide)` the Kd was 130 µM (ALB (Homo sapiens, UniProt P02768); ITC; peptide; pH 7.4, 25 °C, low c value).
`CD24/Siglec-10 blocking peptide, D-amino acids` has a Kd of 9.22 µM (CD24 (Homo sapiens, UniProt P25063); MST).
The Kd of `B1 (lin-42 402-475)` is reported as 0.348 µM (CSNK1D catalytic domain 1-317 (UniProt P48730); BLI; kinetic analysis).
The Kd of `YGREDLDVLGL (ARRB1 residues 63-73)` is reported as 1300 µM (RHO Meta II; Extra Meta II assay; peptide, native disc membranes; pH 8.0, 0 °C).
For `MAPRGFSCLLLLTGEIDLPVKRRA (MT-RNR2 residues 1-24 S14G)`, the Kd was 118 µM (Aβ42, FITC label (UniProt P05067); MST; peptide; 10 min, 25 °C, added: FITC-Aβ42 50 nM).
`MoaA peptide (Staphylococcus aureus)` gave a restored activity of 2.6% (moaA D198A/G340A (Staphylococcus aureus, UniProt P69848); MoaA/MoaC coupled assay; 200 µM; baseline: wt-MoaA, higher = more activity).
For `RRRRRRRRRQLDMFKE (scrambled INCENP peptide; N-acetyl, D-Arg9, aminohexanoic linker, C-amide)`, the Kd was over 1 µM (BIRC5 (Homo sapiens, UniProt O15392); QCM; peptide).
The Kd of `Biotin-GGGSFSIIHTPILPL (peptide; Biotin = O=C1N[C@H]2[C@H](CS[C@H]2CCCCC(=O)*)N1)` is reported as over 0.7 µM (HSPA5 (Homo sapiens, UniProt P11021); flow cytometry; peptide).
The Kd of `ARTK(me3)QTARKSTG (H3C1 2-13 (UniProt P68431); K4me3)` is reported as 0.16 µM (PHF2 1-451 (Homo sapiens, UniProt O75151); ITC; peptide; 25 °C, NaCl 300 mM, one-site fit).
`PHB2 (Plasmodium falciparum, UniProt Q8IJP8)` gave a Kd of 1.16 ± 0.5 µM (HSPA1A (Homo sapiens, UniProt P0DMV8); MST).
For `RRRRRRRRRDQKLMEF (INCENP residues 16-22; N-acetyl, D-Arg9, aminohexanoic linker, C-amide)`, the Kd was 0.0682 µM (BIRC5 (Homo sapiens, UniProt O15392); QCM; peptide).
`AR[pT]KQTARKSTGGKA (histone H3 2-16 (UniProt P68431); pT3; pT = C[C@@H](OP(=O)(O)O)[C@H](N)C(=O)O; sequence looked up)` gave a Kd of 150 ± 13 µM (BIRC5 D71A (Homo sapiens, UniProt O15392); ITC; peptide; pH 7.5, 25 °C, NaCl 100 mM).
The inhibition of `NSRQTDR` is reported as 0% (peptide, human polyclonal IgM RF SOR; concentration not given, 5 µg/mL mAb II-481 coated, added: RF at 50% max binding concentration).
The Kd of `B2 (gpE)` is reported as 0.127 µM (protein, RED-tris-NTA label on His tag (Escherichia coli, UniProt B7LDL1); MST; apparent).
With `GSKIITALEKGEVEESEYVVITVRNEP (FNIP2 550-576 (Homo sapiens, UniProt Q9P278))` the Kd was 0.029 ± 0.002 µM (GABARAP (Homo sapiens, UniProt O95166); competition in solution, SPR; peptide; single-site fit).
The Kd of `CHN2 fragment` is reported as 8 ± 6 µM (NCK1 fragment (Homo sapiens); SPR).
`ACE2/pIgR VHH6 Fc fusion ACE2 , Fc fusion (Homo sapiens)` gave a Kd of 0.265 µM (PIGR (Homo sapiens, UniProt P01833); BLI).
`RmS-17, glycosylated (Rhipicephalus microplus)` gave a protease inhibition of 89.8% (chymotrypsin (Bos taurus); chromogenic substrate hydrolysis, inhibitor; 1 µM).
The Kd of `C3 fragment (Homo sapiens)` is reported as 1.6 µM (sbi fragment (Staphylococcus aureus); SPR; NaCl 150 mM).
With `ENLACDEVTSTTSSSST-NH2 (Puc residues 91-107; not fully specified (N-terminus); N-acetyl, C-amide, fluorescein label)` the Kd was 5.6 µM (SPOP 28-359 L186D/L190D/L193D/I217K (Homo sapiens, UniProt O43791); FP; peptide).
The protease inhibition of `RmS-3, glycosylated (Rhipicephalus microplus)` is reported as under 20% (kallikrein (Sus scrofa); chromogenic substrate hydrolysis, inhibitor; 1 µM).
The partitioning enthalpy of `melittin` is reported as -25 kcal/mol (isothermal titration calorimetry; POPC/POPG LUVs 50:50%; 100 µM, pH 7.0, 60 °C).
The Kd of `IKENLKDCGLF (GNAT1 residues 340-350)` is reported as 180 µM (RHO Meta II; Extra Meta II assay; peptide, native disc membranes; pH 8.0, 0 °C).
The Kd of `SNDAYNFNLEEGVHL[pT]PFR (SGO1 331-349 (Homo sapiens, UniProt Q5FBB7); pT346; pT = C[C@@H](OP(=O)(O)O)[C@H](N)C(=O)O)` is reported as 2.32 µM (T1, STAG2/RAD21 STAG2 80-1060, RAD21 281-420 (Homo sapiens); ITC; peptide; one-site fit).
For `CDYIPYLAYYNPNTYFQ (designed peptide)`, the Kd was 0.0906 µM (ERBB2 fragment (Homo sapiens); SPR; peptide).

Repeated from above:
With `ENLACDEVTSTTSSSST-NH2 (Puc residues 91-107; not fully specified (N-terminus); N-acetyl, C-amide, fluorescein label)` the Kd was 5.6 µM (SPOP 28-359 L186D/L190D/L193D/I217K (Homo sapiens, UniProt O43791); FP; peptide).
The protease inhibition of `RmS-3, glycosylated (Rhipicephalus microplus)` is reported as under 20% (kallikrein (Sus scrofa); chromogenic substrate hydrolysis, inhibitor; 1 µM).
The partitioning enthalpy of `melittin` is reported as -25 kcal/mol (isothermal titration calorimetry; POPC/POPG LUVs 50:50%; 100 µM, pH 7.0, 60 °C).
The Kd of `IKENLKDCGLF (GNAT1 residues 340-350)` is reported as 180 µM (RHO Meta II; Extra Meta II assay; peptide, native disc membranes; pH 8.0, 0 °C).
